Results of several laboratories.
Protocols differ between the studies behind these lines.

`OCC1OC(n2cnc3c(NCc4ccc(Br)s4)ncnc32)C(O)C1O` (stereo not shown) has a Tmax of 120 min (male C57BL/6 mouse, brain; oral, 3 mg/kg).
`COc1ccccc1/C=C/CNCC(O)COc1ccc(Nc2ccccc2)cc1` (racemic) gave a Tmax of 19.8 min (mouse, plasma; oral, 10 mg/kg).
`CC[C@H](C)/C=C/C=C/C=C/C(O)=C/C(=O)C(Cl)(Cl)Cl` has a Tmax of 15 min (female C57BL/6 mouse, plasma; oral, 25 mg/kg).
With `CCn1cc(-c2cc(Cn3ccnc3)cc3c2CCN([C@H](c2cc(OC)ccn2)C2CC2)C3=O)c(C(F)(F)F)n1` the Tmax was 18 min (male CD-1 mouse, plasma; oral, 10 mg/kg).
For `O=C(Nc1ccc(C(F)F)cc1)[C@H](CC1CCCCC1)Nc1nn2c(=O)ccnc2s1`, the Tmax was 30 min (female nude mouse, plasma; oral, 10 mg/kg).
`Cc1cc(NC(=O)[C@H](O)c2cc(F)cc(F)c2)ccc1-c1cnc(N)c(C(=O)NC(C)C)c1` has a Tmax of 60 min (female nude mouse, plasma; oral, 50 mg/kg, single dose).
For `Fc1cccc(-n2cc(-c3ccccc3)nc2NCc2ccc(C(F)(F)F)c(Br)c2)c1`, the Tmax was 120 min (male CD-1 mouse, intestine; intraperitoneal, 25 mg/kg, single dose).
For `O=C1CCC(N2C(=O)c3ccc(N4CCC(C(=O)N5CCC(CCN6CCC(CNC(=O)c7cccc(-c8noc(C(F)(F)F)n8)c7)(c7nc(-c8ccccc8)cs7)CC6)CC5)CC4)cc3C2=O)C(=O)N1` (stereo not shown), the Tmax was 15 min (CD-1 mouse, plasma; intraperitoneal, 30 mg/kg).
With `COc1ccc2nc(NC(c3ccc(O)cc3)P(=O)(OC)OC)sc2c1` (stereo not shown) the Tmax was 1.8 min (mouse, plasma; intravenous, 10 mg/kg).
The Tmax of `Fc1cccc(-n2cc(-c3ccccc3)nc2NCc2ccc(C(F)(F)F)c(F)c2)c1` is reported as 30 min (male CD-1 mouse, plasma; intraperitoneal, 25 mg/kg, single dose).
The Tmax of `Cn1c2cc([S+](C)[O-])sc2c2cnn(Cc3cccc(N)c3)c(=O)c21` (stereo not shown) is reported as 30 min (male BALB/c mouse, plasma; intraperitoneal, 50 mg/kg, single dose).
For `N#CCCC1CCN(C(=S)c2ccc(-c3cc(Cl)ccc3Cl)o2)CC1`, the Tmax was 30 min (male BALB/c mouse, plasma; oral, 10 mg/kg).
With `O=C(O)c1ccc(/C=C2\SC(=S)N(Cc3cccc(C(F)(F)F)c3)C2=O)cc1` the Tmax was 4.8 min (C57BL/6 mouse, blood; intravenous, 5 mg/kg).
For `O=C(OC(C(F)(F)F)C(F)(F)F)N1CCC(CNS(=O)(=O)c2ccc(Cl)cc2)CC1`, the Tmax was 240 min (male SCID mouse, plasma; oral, 10 mg/kg).
`O=S(=O)(Nc1ccc(OC(F)(F)F)cc1)N1CCCC(C2c3ccc(F)cc3CCc3cc(F)ccc32)C1` (stereo not shown) has a Tmax of 240 min (mouse, plasma; oral, 30 mg/kg).
With `CCOC(=O)c1nc2cc(Cl)c(Cl)cc2nc1N1CCN(C(=O)Nc2ccc(N3CCNCC3)cc2)CC1` the Tmax was 240 min (male mouse, plasma; oral, 10 mg/kg).
The Tmax of `CCC1C(COc2nccc3cc(C(N)=O)c(OC)cc23)NC(=O)C1F` (stereo not shown) is reported as 2.94 min (CD-1 mouse, plasma; oral, 10 mg/kg).
`Nc1ccc(-c2cc(Cl)c(Cl)c3[nH]c4c(c23)CN(C(=O)CO)CC4)cn1` gave a Tmax of 25 min (C57BL/6 mouse, blood; oral, 20 mg/kg).
With `CC(=O)N1c2ccc(-c3ccc(CNC(=O)c4cn5cc(-c6cnc(N)nc6)nc(N6CCOCC6)c5n4)cc3)cc2CC[C@@H]1C` the Tmax was 60 min (female C57BL/6 mouse, plasma; intraperitoneal, 45 mg/kg, single dose).
`Cc1cc(C(=O)N[C@@H](CC(=O)NC(C)(C)C)C(=O)NCCNC(=O)c2cccc(-n3cccn3)c2)no1` gave a Tmax of 15 min (mouse, plasma; oral, 1 mg/kg).
For `COc1cnc2cccc(N3CCc4c(cc(Cn5ccnc5)cc4-c4cn(C)nc4C(F)(F)F)C3=O)c2c1`, the Tmax was 30 min (male CD-1 mouse, plasma; intraperitoneal, 10 mg/kg).
`COC1C(c2ccc(Cl)c(Cc3ccc(OC4CCOC4)cc3)c2)OC(CO)C(O)C1O` (stereo not shown) gave a Tmax of 4.8 min (CD-1 mouse, plasma; intravenous, 5 mg/kg).
The Tmax of `O=C(NCCCCc1ccccc1)n1c(=O)oc2cc(-c3ccc(F)cc3)ccc21` is reported as 30 min (CD-1 mouse, plasma; intraperitoneal, 10 mg/kg).
The Tmax of `Cn1ccc(-c2cc(Cl)c(Cl)c3[nH]c4c(c23)CN(C(=O)CO)CC4)n1` is reported as 5 min (C57BL/6 mouse, blood; intravenous, 0.5 mg/kg).
The Tmax of `O=C(c1ccccc1)N1C(c2ccc(OCC3CCN(CCCF)C3)cc2)c2ccc(O)cc2CC12CC2` (stereo not shown) is reported as 30 min (C57BL/6 mouse, plasma; intraperitoneal, 25 mg/kg).

Excerpt of the above:
`COc1ccccc1/C=C/CNCC(O)COc1ccc(Nc2ccccc2)cc1` (racemic) gave a Tmax of 19.8 min (mouse, plasma; oral, 10 mg/kg).
With `CCn1cc(-c2cc(Cn3ccnc3)cc3c2CCN([C@H](c2cc(OC)ccn2)C2CC2)C3=O)c(C(F)(F)F)n1` the Tmax was 18 min (male CD-1 mouse, plasma; oral, 10 mg/kg).
The Tmax of `CCC1C(COc2nccc3cc(C(N)=O)c(OC)cc23)NC(=O)C1F` (stereo not shown) is reported as 2.94 min (CD-1 mouse, plasma; oral, 10 mg/kg).
